Assay results pooled from the literature.
Lines come from different studies, so protocols differ. Values joined by “and” are separate records of one study, mostly repeats; a detail may differ. ± gives the spread as reported.

| Compound | assay | system | setting | how to read | endpoint | value |
| --- | --- | --- | --- | --- | --- | --- |
| CSCCNc1nc(SCCC(F)(F)F)nc2c1ncn2[C@@H]1O[C@H](COP(=O)(O)OP(=O)(O)C(Cl)(Cl)P(=O)(O)O)[C@@H](O)[C@H]1O | ADP-induced platelet aggregation, Multiplate | human patients, whole blood | 4 to 6 h | – | platelet aggregation | 54.3 ± 35.8 U |
| N#Cc1ccc(C(c2ccc(C#N)cc2)n2cncn2)cc1 | ELISA | human patients, tumour homogenate | 12.5 mg daily | – | estradiol concentration | 390 ± 71.6 pg/mL |
| CC(CCc1ccc(O)cc1)NCCc1ccc(O)c(O)c1 (stereo not drawn) | – | anaesthetised instrumented rat | iv infusion, 1 µg/kg/min, 15 min, unit not given | baseline: baseline | cardiac output change | 3.5 ± 1 |
| Cc1cn(-c2ccc3n(c2=O)CCN([C@@H](C)[C@@H]2CC[C@H](c4cc(F)c(Cl)cc4C(F)(F)F)O2)C3=O)cn1 | measured: Aβ38 | human, cerebrospinal fluid | 150 mg single dose, Tmax | baseline: placebo-adjusted baseline | change in CSF level | 29.9% |
| CN1CCN(C(=O)c2ccc3cc(CCNc4ccnc5ccc(C#N)cc45)ccc3c2)CC1 | bioluminescence imaging | mouse, MV4-11 AML xenograft | oral, 40 mg/kg twice daily, 4 weeks | – | leukaemia growth | decreased |
| O=C1N(Cc2ccccc2Cl)c2ccccc2C12NN=C(c1ccccc1)S2 (stereo not drawn) | – | AB12 tumour, mouse | intravenous, 405.4 mg/kg total, subcutaneous tumour | baseline: vehicle | T/C | 85% |
| CC(C)C[C@@H](NC(=O)[C@H](C)NC(=O)CNC(=O)[C@@H](NC=O)C(C)C)C(=O)N[C@@H](C)C(=O)N[C@@H](C(=O)N[C@H](C(=O)N[C@@H](C(=O)N[C@@H](Cc1c[nH]c2ccccc12)C(=O)N[C@H](CC(C)C)C(=O)N[C@@H](Cc1c[nH]c2ccccc12)C(=O)N[C@H](CC(C)C)C(=O)N[C@@H](Cc1c[nH]c2ccccc12)C(=O)N[C@@H](C(=O)N[C@@H](Cc1c[nH]c2ccccc12)C(=O)NCCO)C(C)C)[C@H](C)O)C(C)C)C(C)C | H+/Na+ transport, pyranine pH-gradient | EYPC/EYPG LUVs 19:1 | – | – | EC50 | 1.83 ± 1.08 nM |
| C[C@H]1C[C@H]2CSC(N)=N[C@@]2(c2nc(NC(=O)c3ccc(OC(F)F)cn3)cs2)CO1 | measured: Aβ1-40 | healthy adults, plasma | 400 mg single dose, 8 h post-dose | baseline: placebo | percent change from baseline | -82.4% |
| N#Cc1ccn2c(-c3ccncc3)c(-c3ccc(F)cc3)nc2c1 | kinase binding, competitor, MIB/MS competition, measured: CMK1 | Candida albicans cell lysate | 100 nM | baseline: DMSO | log2 fold change | -0.114 |
| N#Cc1ccc2c(c1)[C@H]1CCCN(C(=O)c3ccc4[nH]cnc4c3)[C@H]1C2 | – | human, Phase II trial | oral, 240 mg once daily, day 28, adjusted mean, SE | – | body weight change from baseline | -0.4 kg |
| Cn1nnc2c(C(N)=O)ncn2c1=O | – | mouse subcutaneous GBM PDX sample A | subcutaneous, dose not given | – | T/C ratio | 93% |
| OC(CCN1CCCCC1)(c1ccccc1)C1CC2C=CC1C2 (stereo not drawn) | resting-state EEG | healthy elderly humans | oral, 2 mg, eyes open, LS mean | – | EEG Beta1-power Pz-O2 | 3.7 µV² |
| Cn1cc(Nc2nccc(-c3ccc4c(c3)CN(C3COC3)CC[C@H]4NC(=O)c3cn(C(C)(C)C)nn3)n2)cn1 | measured: Glutathione-mediated Detoxification | splenic B cells, Mus musculus | 30 mg/kg, together with: IgD activation | baseline: vehicle, direction not given | pathway activation z-score | 1.63 |
| O=C(O)CNC(=O)Cc1ccccc1 | – | ventricular cardiomyocytes, C57BL/6 mouse | dose not given, 0.124 s | – | sarcomere length | 1.71 µm |
| Cc1cc([C@H]2C[C@H]3[C@@H](CF)SC(N)=N[C@@]3(c3ccc(F)cc3F)CO2)on1 | measured: Aβx-40 | wild-type mouse, brain | subcutaneous, 100 mg/kg, 7 h | – | brain Aβ40 level | 1.83 ng/g |
| COc1ccc(-c2cncc(N[C@@H](C)c3cccc(NC(=O)c4cncc(C)c4)c3)n2)cc1OC | measured: rno-miR-212-3p | rat SU5416/hypoxia model, lung | dose not given, unit not given | baseline: SU5416/hypoxia vehicle | delta delta Ct | -0.599 |
| CCN(Cc1nc2c(N)nc3cc(-c4cc[nH]n4)ccc3c2[nH]1)C(C)=O | Luminex, measured: IL-6 | cancer patients, serum | 1200 µg monotherapy, first 24 h | baseline: baseline | fold change | 9.3 |
| C[C@H](CS)C(=O)N1CCC[C@H]1C(=O)O | – | mouse, unilateral ureteral obstruction, right kidney (control) | dose not given | – | fibrosis area | 0.48% and 2.13% and 0.73% and 1.28% and 0.83% and 1.15% |

Excerpt of the above:
| Compound | assay | system | setting | how to read | endpoint | value |
| --- | --- | --- | --- | --- | --- | --- |
| C[C@H](CS)C(=O)N1CCC[C@H]1C(=O)O | – | mouse, unilateral ureteral obstruction, right kidney (control) | dose not given | – | fibrosis area | 0.48% and 2.13% and 0.73% and 1.28% and 0.83% and 1.15% |
| CC(CCc1ccc(O)cc1)NCCc1ccc(O)c(O)c1 (stereo not drawn) | – | anaesthetised instrumented rat | iv infusion, 1 µg/kg/min, 15 min, unit not given | baseline: baseline | cardiac output change | 3.5 ± 1 |
